Published values from different studies.
Compare with care: the assays were run in different laboratories. Numbers after ± are the reported error. Values after ≈ are worked out from the molar mass of the structure shown.

| SMILES | assay | system | conditions | how to read | quantity | result |
| --- | --- | --- | --- | --- | --- | --- |
| CN1C(=O)[C@@H](NC(=O)c2nnc(Cc3ccccc3)[nH]2)COc2cccnc21 | phase I single ascending dose | human, male and female | oral, 800 mg, fasted | – | medical device site reaction incidence | 0% |
| C[C@@]1(c2cc(NC(=O)c3ccc(C#N)cn3)ccc2F)C=CSC(N)=N1 | – | elderly humans, both sexes, plasma | oral, 10 mg single dose | – | dose-normalised AUC(0-inf) | 104 ng·h/mL |
| C[C@@H](c1ccc2nccn2c1)n1nnc2ncc(-c3cnn(C)c3)nc21 | measured: neutrophil count decreased | EGFR-mutant MET-altered NSCLC patients | oral, dose not given, AE grade ≥3, all | – | incidence of treatment-related AEs | 6% |
| Cc1nc2ncnn2c(O)c1NS(=O)(=O)c1ccc(Br)cc1 | – | aqueous buffer | pH 7.4 | – | thermodynamic solubility | 6.27 mM (≈ 2410 µg/mL) |
| O=C(O)CCC(=O)O.[2H]C([2H])([2H])Oc1cc(C)c2[nH]ccc2c1CN1CC[C@@H](C2CC2)C[C@H]1c1ccc(C(=O)O)cc1 | multiple ascending dose | healthy Chinese subjects | 300 mg once daily | – | subjects with TEAE Eczema | 0% |
| CNCc1ccc(-c2[nH]c3cc(F)cc4c3c2CCNC4=O)cc1 | – | human patients | oral, 240 mg twice daily, all grades | – | dyspnoea incidence | 0% |
| COc1ccnc(C(=O)N[C@@H](CO)C(=O)O[C@@H](C)[C@H](O)[C@@H](Cc2ccccc2)C(=O)O)c1O | – | bovine milk | -18 °C | – | storage stability of residues | 3 months |
| CC(C(=O)NCC(=O)NCC(CNC(=O)CNC(=O)C(C)N1CCN(CC(=O)[O-])CCN(CC(=O)[O-])CCN(CC(=O)[O-])CC1)(CNC(=O)CNC(=O)C(C)N1CCN(CC(=O)[O-])CCN(CC(=O)[O-])CCN(CC(=O)[O-])CC1)CNC(=O)CNC(=O)C(C)N1CCN(CC(=O)[O-])CCN(CC(=O)[O-])CCN(CC(=O)[O-])CC1)N1CCN(CC(=O)[O-])CCN(CC(=O)[O-])CCN(CC(=O)[O-])CC1.[Gd+3].[Gd+3].[Gd+3].[Gd+3] (stereo not drawn) | – | cynomolgus monkey, kidney cortex | dose not given, day 5 | – | lanthanide concentration | 41 ± 32 nmol/g |
| CC(C)c1nc(N(C)S(C)(=O)=O)nc(-c2ccc(F)cc2)c1/C=C/[C@@H](O)C[C@@H](O)CC(=O)O | – | human | oral, 10 mg, compound alone | – | participants with TRAE dizziness | 0% |
| Cn1cc(-c2cn3nccc3c(-c3cnn([C@]4(CC#N)C[C@@H](C#N)C4)c3)n2)cn1 | – | healthy human, plasma | 30 mg once daily, day 10, multiple dose, fed, geometric mean | – | MRT | 10.6 h |
| Cc1ccc(Sc2ccccc2N2CCNCC2)c(C)c1 | measured: Diarrhea | healthy adult women | oral, 10 mg daily, 12 days | – | participants with TEAE | 0% |
| CCCCOc1ccc([C@H]2CC[C@H](CCC)CC2)c(F)c1F | – | rat, fetus | 5000 ng/mL in perfusate, high dose, mixture of 21 LCMs | – | median fetal accumulation | 1.26 ng/g |
| O=C(COc1ccc(Cl)cc1)NC12CC(c3nnc([C@H]4C[C@@H](OC(F)(F)F)C4)o3)(C1)C2 | measured: Fatigue | human | oral, 260 mg once daily, 14 days | – | adverse event incidence | 28.6% |
| O=S(=O)(c1ccc(-c2ccc3nccc(Nc4ccncn4)c3c2)cc1)N1CCOCC1 | – | female BALB/c mice, brain | intraperitoneal, 10 mg/kg, 1 h, mean | – | brain concentration | 67.3 ng/g |
| CNC(=O)c1ccc(-c2cnc3ncc(Cc4ccc5ncccc5c4)n3n2)cc1F | measured: Cough | cancer patients | oral, dose not given, dose escalation, grade 3-4 | – | patients with adverse event | 0% |
| COc1ccc2c(c1)CN(C(=O)CCN1CCC(Cc3ccccc3)CC1)CC[S@@+]2[O-] | telemetry | conscious male beagle dogs | intravenous, 4 mg/kg, 1 h | – | QTc interval | 257 ± 4 ms |
| CNc1ccc(-c2nc3ccc(O)cc3s2)cc1 [carbon-11 labelled] | ex vivo biodistribution | APP/PS1 mouse, AD model, eyes | intravenous, 30 min | – | SUV | 0.574 ± 0.258 |
| CCN1CCN(Cc2ccc(NC(=O)c3ccc(C)c(NC(=O)c4cncc(-c5cccs5)c4)c3)cc2C(F)(F)F)CC1 | LC-MS/MS | C57BL/6 mouse, plasma | intraperitoneal, 20 mg/kg single dose, 0.5 h | – | mean plasma concentration | 714 ng/mL |
| Cc1ccc(C(=O)N(CCCN)C(c2nc3snc(C)c3c(=O)n2Cc2ccccc2)C(C)C)cc1 (stereo not drawn) | – | human patients | intravenous, 18 mg/day | – | grade ≥3 fatigue patients | 0% |
| Cc1cc([C@H]2C[C@H]3[C@@H](CF)SC(N)=N[C@@]3(c3ccc(F)cc3F)CO2)on1 | – | male 129/SVE wild-type mouse, brain | subcutaneous, 30 mg/kg, 9 h | – | brain concentration | 14 nM |
| Cc1ccc([C@@H]2O[C@H](CO)[C@@H](O)[C@H](O)[C@H]2O)cc1Cc1ccc(-c2ccc(F)cc2)s1 | – | Japanese type 2 diabetes patients | 200 mg, day 6, 24 h urine collection | baseline: baseline | urinary sodium excretion change | 3.64 mEq |

Some of these lines once more:
| SMILES | assay | system | conditions | how to read | quantity | result |
| --- | --- | --- | --- | --- | --- | --- |
| COc1ccnc(C(=O)N[C@@H](CO)C(=O)O[C@@H](C)[C@H](O)[C@@H](Cc2ccccc2)C(=O)O)c1O | – | bovine milk | -18 °C | – | storage stability of residues | 3 months |
| CN1C(=O)[C@@H](NC(=O)c2nnc(Cc3ccccc3)[nH]2)COc2cccnc21 | phase I single ascending dose | human, male and female | oral, 800 mg, fasted | – | medical device site reaction incidence | 0% |
| CNc1ccc(-c2nc3ccc(O)cc3s2)cc1 [carbon-11 labelled] | ex vivo biodistribution | APP/PS1 mouse, AD model, eyes | intravenous, 30 min | – | SUV | 0.574 ± 0.258 |
